Results collected from several papers.
Compare with care: the assays were run in different laboratories. ± marks the error that the study gave.
gyrB with GyrA: DNA gyrase subunit B, with GyrA (gyrB, Mycobacterium tuberculosis, UniProt P9WG45)
UniProt P9WG45, sequence (whole entry, looked up): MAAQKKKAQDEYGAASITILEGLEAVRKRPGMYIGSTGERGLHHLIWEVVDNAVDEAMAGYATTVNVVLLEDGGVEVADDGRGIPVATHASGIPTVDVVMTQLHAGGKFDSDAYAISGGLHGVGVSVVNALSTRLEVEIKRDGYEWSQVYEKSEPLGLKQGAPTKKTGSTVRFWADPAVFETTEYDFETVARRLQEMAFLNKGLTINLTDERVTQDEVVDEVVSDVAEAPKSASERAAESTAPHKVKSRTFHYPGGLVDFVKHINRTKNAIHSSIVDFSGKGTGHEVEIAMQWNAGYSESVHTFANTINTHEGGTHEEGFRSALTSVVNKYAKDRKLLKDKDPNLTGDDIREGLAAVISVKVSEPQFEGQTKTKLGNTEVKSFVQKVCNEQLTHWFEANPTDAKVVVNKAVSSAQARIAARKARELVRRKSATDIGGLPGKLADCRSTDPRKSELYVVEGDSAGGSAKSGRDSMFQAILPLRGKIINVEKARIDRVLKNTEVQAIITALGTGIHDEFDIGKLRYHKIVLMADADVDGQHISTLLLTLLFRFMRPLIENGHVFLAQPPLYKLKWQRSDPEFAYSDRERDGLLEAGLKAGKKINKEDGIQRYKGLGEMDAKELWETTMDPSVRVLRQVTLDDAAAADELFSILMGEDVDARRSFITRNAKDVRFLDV
UniProt P47870, sequence (whole entry, looked up): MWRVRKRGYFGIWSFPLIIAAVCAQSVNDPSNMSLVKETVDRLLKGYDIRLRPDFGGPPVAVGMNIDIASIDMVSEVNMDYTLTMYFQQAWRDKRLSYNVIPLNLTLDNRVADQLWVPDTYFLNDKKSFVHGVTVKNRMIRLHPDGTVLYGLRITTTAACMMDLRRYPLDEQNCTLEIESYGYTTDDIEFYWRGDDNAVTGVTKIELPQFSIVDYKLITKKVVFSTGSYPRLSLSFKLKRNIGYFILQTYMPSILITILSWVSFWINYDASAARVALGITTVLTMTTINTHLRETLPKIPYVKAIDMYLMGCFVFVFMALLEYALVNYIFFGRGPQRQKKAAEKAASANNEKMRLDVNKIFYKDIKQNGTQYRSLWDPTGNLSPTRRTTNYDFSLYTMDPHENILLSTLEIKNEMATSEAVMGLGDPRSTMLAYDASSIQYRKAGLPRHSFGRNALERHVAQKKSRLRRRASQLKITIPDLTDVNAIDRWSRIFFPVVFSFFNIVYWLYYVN
UniProt P25929, sequence (whole entry, looked up): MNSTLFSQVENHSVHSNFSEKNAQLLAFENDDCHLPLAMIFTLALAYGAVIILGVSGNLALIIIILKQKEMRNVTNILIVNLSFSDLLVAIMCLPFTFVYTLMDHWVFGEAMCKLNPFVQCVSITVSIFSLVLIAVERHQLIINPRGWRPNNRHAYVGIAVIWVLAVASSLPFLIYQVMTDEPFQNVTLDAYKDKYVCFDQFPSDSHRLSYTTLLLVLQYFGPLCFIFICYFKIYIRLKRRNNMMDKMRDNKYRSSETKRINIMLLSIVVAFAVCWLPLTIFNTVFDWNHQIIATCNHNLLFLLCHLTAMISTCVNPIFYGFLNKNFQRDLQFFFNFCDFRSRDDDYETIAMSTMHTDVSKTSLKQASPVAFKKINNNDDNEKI
UniProt Q86UE8, sequence (whole entry, looked up): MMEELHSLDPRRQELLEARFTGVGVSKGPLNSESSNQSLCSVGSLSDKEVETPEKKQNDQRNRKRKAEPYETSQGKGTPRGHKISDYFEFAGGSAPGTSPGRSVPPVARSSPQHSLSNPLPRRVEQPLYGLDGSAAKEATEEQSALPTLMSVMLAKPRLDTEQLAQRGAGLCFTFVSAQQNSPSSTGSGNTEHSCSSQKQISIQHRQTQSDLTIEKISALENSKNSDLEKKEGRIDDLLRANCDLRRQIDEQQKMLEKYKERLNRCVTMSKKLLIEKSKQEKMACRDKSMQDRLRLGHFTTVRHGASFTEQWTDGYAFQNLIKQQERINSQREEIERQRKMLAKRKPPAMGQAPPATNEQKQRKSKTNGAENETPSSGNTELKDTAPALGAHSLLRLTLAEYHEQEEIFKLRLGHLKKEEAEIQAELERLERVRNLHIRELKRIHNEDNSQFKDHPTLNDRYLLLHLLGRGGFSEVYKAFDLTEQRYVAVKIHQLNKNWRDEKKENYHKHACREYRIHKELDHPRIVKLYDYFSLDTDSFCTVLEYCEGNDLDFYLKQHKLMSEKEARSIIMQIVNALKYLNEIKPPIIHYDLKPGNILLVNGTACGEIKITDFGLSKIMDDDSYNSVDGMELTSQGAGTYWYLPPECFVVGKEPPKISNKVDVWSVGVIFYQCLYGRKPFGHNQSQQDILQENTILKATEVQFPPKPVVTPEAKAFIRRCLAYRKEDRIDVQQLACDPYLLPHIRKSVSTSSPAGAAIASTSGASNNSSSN
UniProt P14867, sequence (whole entry, looked up): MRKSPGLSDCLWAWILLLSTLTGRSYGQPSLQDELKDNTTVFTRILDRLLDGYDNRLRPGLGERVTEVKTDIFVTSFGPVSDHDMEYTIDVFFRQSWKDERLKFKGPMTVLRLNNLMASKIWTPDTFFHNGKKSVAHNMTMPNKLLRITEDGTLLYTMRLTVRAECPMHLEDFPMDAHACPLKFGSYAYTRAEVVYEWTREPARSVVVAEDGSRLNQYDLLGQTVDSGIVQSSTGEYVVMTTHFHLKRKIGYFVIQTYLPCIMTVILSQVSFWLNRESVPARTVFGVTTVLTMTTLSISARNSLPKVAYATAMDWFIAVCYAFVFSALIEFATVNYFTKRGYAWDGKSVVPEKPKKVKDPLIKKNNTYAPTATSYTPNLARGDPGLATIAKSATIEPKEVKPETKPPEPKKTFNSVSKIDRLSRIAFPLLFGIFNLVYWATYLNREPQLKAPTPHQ
UniProt P35372, sequence (whole entry, unmodified, looked up): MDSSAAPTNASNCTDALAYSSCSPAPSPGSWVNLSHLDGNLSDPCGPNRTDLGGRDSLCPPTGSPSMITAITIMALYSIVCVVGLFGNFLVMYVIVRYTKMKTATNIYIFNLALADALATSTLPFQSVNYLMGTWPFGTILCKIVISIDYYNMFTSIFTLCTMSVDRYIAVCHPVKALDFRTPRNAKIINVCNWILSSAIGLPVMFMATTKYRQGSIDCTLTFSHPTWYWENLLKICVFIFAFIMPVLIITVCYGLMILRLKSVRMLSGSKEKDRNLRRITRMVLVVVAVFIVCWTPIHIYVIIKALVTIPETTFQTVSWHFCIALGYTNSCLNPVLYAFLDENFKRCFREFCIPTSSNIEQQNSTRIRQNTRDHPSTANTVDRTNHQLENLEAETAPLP

SMILES = COc1ccc(NC(=O)N2CCCCN3[C@H](CN(C)C)[C@H](c4ccc(C#Cc5ccccc5)cc4)[C@@H]3C2)cc1; tested on = Toxoplasma gondii; test = parasite growth, luciferase reporter; system = HFF host cells, tachyzoites; setting = 72 h; measurement = EC50; value = 0.11 µM
SMILES = CC[C@@H](c1cccc(O)c1)[C@@H](C)CN(C)C; tested on = Mu-type opioid receptor (OPRM1, Homo sapiens, UniProt P35372, N40D); test = agonist; system = human cells; setting = N40D receptor, receptor depletion by β-CNA; measurement = EC50; value = 2.51 µM
SMILES = CC1CCN(CCCNC(=O)c2cc(Sc3ccc(F)cc3)nc3ccccc23)CC1; tested on = Vero-E6; test = CellTiter-Glo ATP; setting = 72 h, retest 8-point duplicates; scale = relative to: DMSO 0%, hyamine -100%, more negative, more toxic; measurement = maximum response; value = -8.01%
SMILES = O=C(Nc1ccc2c(c1)C=CCP(=O)(O)O2)c1ccc2ccccc2c1; tested on = Carbonic anhydrase 9 (CA9, Homo sapiens, UniProt Q16790); measurement = Ki; value = 0.0201 µM
SMILES = O=C(O)CCc1c(C(=O)N2CCCC2)[nH]c2ccc(Cl)cc12; tested on = gyrB with GyrA; test = inhibitor; measurement = IC50; value = > 500 µM
SMILES = COc1ccc(N2CCN(CCCNC(=O)c3cc(Nc4ccc(OC)cc4OC)nc4ccccc34)CC2)cc1; tested on = Vero-E6; test = CellTiter-Glo ATP; setting = 72 h, retest 8-point duplicates; scale = relative to: DMSO 0%, hyamine -100%, more negative, more toxic; measurement = maximum response; value = -22.5%
SMILES = C[C@@]12CC[C@H](O)C[C@@H]1CC[C@H]1[C@H]2CC[C@@]2(C)C(=O)CC[C@H]12; tested on = GABA-A receptor; GABA-A site (alpha1/beta2 interface) (Homo sapiens, UniProt P14867+P47870); measurement = EC50; value = 16.3 µM
SMILES = C[C@H]1CN(c2n[nH]c3nc(N[C@H]4CC[C@H](NS(=O)(=O)CCC(F)(F)F)CC4)ncc23)CCO1; tested on = Serine/threonine-protein kinase tousled-like 2 (TLK2, Homo sapiens, UniProt Q86UE8); test = biochemical; measurement = IC50; value = ≥ 20 µM
SMILES = O=C(CCc1c(C(=O)N2CCOCC2)[nH]c2ccc(Cl)cc12)N1CCOCC1; tested on = gyrB with GyrA; test = inhibitor; measurement = IC50; value = > 500 µM
SMILES = C[C@@H]1[C@@H](C)N/C(=C\[N+](=O)[O-])N1Cc1ccc(Cl)nc1; test = radioligand binding; system = Musca domestica head membranes; setting = together with: [3H]imidacloprid; measurement = Ki; value = 0.00272 ± 0.00127 µM
SMILES = COc1cc(Nc2ncc(F)c(Nc3ccc4c(n3)NC(=O)C(C)(C)O4)n2)cc(OC)c1OC; tested on = Neuropeptide Y receptor type 1 (NPY1R, Homo sapiens, UniProt P25929); measurement = IC50; value = > 10 µM

Some of these lines once more:
SMILES = CC1CCN(CCCNC(=O)c2cc(Sc3ccc(F)cc3)nc3ccccc23)CC1; tested on = Vero-E6; test = CellTiter-Glo ATP; setting = 72 h, retest 8-point duplicates; scale = relative to: DMSO 0%, hyamine -100%, more negative, more toxic; measurement = maximum response; value = -8.01%
